Results gathered from unrelated publications.
Protocols differ between the studies behind these lines.
Cell line: HCT-116

| SMILES | assay | conditions | scale | quantity | value |
| --- | --- | --- | --- | --- | --- |
| C#C[C@@]1(O)[C@@H](CO)O[C@@H](n2cc(Cl)c3c(N)ncnc32)[C@@H]1O | cell growth or viability, SRB | 48 h |  | GI50 | 0.02 µM |
| CCCCCCCCNC(=S)NCCCC[C@H](NC(=O)OCc1ccccc1)C(=O)Nc1ccccc1 | colony formation | 3D culture |  | GI50 | ~7 µM |
| N#Cc1ccc(-c2csc(NN=Cc3cc(F)cc(C(F)(F)F)c3)n2)cc1 | colony formation, clonogenic | 5 µM, 24 h |  | inhibition | 5 to 30% |
| COc1cc(/C=N/n2c(C)nc3ccc(Br)cc3c2=O)ccc1O | cell growth or viability, LDH | 200 µg/mL, 24 h |  | viability | 12.8% |
| COc1cc(OC)c(OC)cc1C=NNc1nc(-c2ccc(C#N)cc2)cs1 | colony formation | 10 µM, 24 h |  | inhibition | 100% |
| Nc1nc(N)c(N=O)c(OCc2ccc(Cl)cc2)n1 | cell growth or viability, SRB | 72 h |  | GI50 | 52 µM |
| COc1cc(CNC(=O)CCCC/C=C/C(C)C)ccc1OCc1cn(-c2cc(OC)c(OC)c(OC)c2)nn1 | SRB | 10 µM, 48 h |  | growth percent | 87.1% |
| N#Cc1ccc(-c2csc(NN=Cc3sccc3Br)n2)cc1 | colony formation | 5 µM, 24 h |  | inhibition | 5 to 50% |
| Cc1[nH]c(=O)nc2c1c(=O)oc1ccc3ccccc3c12 | cell growth or viability, MTT | 10 µM |  | inhibition | 69.8% |
| COc1cc(CNC(=O)CCCC/C=C/C(C)C)ccc1OCc1cn(-c2cccc(Cl)c2)nn1 | SRB | 10 µM, 48 h |  | growth percent | 76.8% |
| Cc1ccc(-n2c(SCC(=O)NNC(=O)Nc3ccccc3)nc3ccccc3c2=O)cc1 | annexin V-FITC/PI flow cytometry | concentration not given, 24 h |  | total apoptotic cells | 46.5% |
| CC1=C(C(=O)Nc2cccnc2)C(c2ccc3ccc4cccc5ccc2c3c45)NC(=S)N1 (stereo not shown) | cell growth or viability, MTT | 10 µM |  | inhibition | 79.3% |
| COc1cc(CNC(=O)CCCC/C=C/C(C)C)ccc1OCc1cn(-c2ccccc2OC)nn1 | SRB | 10 µM, 48 h |  | growth percent | 82.7% |
| CC12NC(=O)NC(c3c(ccc4ccccc34)O1)C2C(=O)Nc1ccccc1 (stereo not shown) | cell growth or viability, MTT | 10 µM |  | inhibition | 49.3% |
| NS(=O)(=O)c1ccc(Nc2nc(OCC3CCCCC3)c3nc[nH]c3n2)cc1 | cell growth or viability, SRB | 72 h |  | GI50 | 5.7 µM |
| COc1cc(CNC(=O)CCCC/C=C/C(C)C)ccc1OCc1cn(-c2ccc(Cl)c(Cl)c2)nn1 | SRB | 10 µM, 48 h |  | growth percent | 107% |
| NCCC(=O)Nc1ccccc1/N=c1\cc(-c2ccc3nc(N)oc3c2)oc2ccc(F)cc12 | cell growth or viability, CCK-8 | 1 µM |  | inhibition | > 70% |
| C#Cc1cccc(Nc2ncnc3cc(OCCOC)c(OCCOC)cc23)c1 | cell growth or viability, MTT | 10 µM |  | inhibition | 88.3% |
| N#Cc1ccc(-c2csc(NN=Cc3c(F)c(F)c(F)c(F)c3F)n2)cc1 | colony formation | 10 µM, 24 h |  | inhibition | 100% |
| Cc1nc2ccccc2c(=O)n1NC(=O)CSc1nc2ccccc2c(=O)n1-c1ccccc1 | cell growth or viability, LDH | 200 µg/mL, 24 h |  | viability | 4.75% |
| COc1cc(CNC(=O)CCCC/C=C/C(C)C)ccc1OCc1cn(-c2ccc(Cl)cc2)nn1 | SRB | 10 µM, 48 h |  | growth percent | 63.7% |
| CC1=C(C(=O)Nc2ccccn2)C(c2ccc3ccc4cccc5ccc2c3c45)NC(=S)N1 (stereo not shown) | cell growth or viability, MTT | 10 µM |  | inhibition | 86.3% |
| N#Cc1ccc(-c2csc(NN=Cc3c(Cl)cccc3Cl)n2)cc1 | colony formation | 10 µM, 24 h |  | inhibition | 100% |
| CCc1ccc(-n2cc(COc3ccc(CNC(=O)CCCC/C=C/C(C)C)cc3OC)nn2)cc1 | SRB | 10 µM, 48 h |  | growth percent | 90.7% |
| N#Cc1ccc(-c2csc(NN=Cc3cccc(F)c3)n2)cc1 | colony formation | 10 µM, 24 h |  | inhibition | 100% |
| Cn1c(=O)n(-c2ccc(C(C)(C)C#N)cc2)c2c3cc(-c4cnc5ccccc5c4)ccc3ncc21 | cell growth or viability, SRB | 72 h |  | GI50 | 0.016 µM |
| COc1cc([C@@H]2c3cc4c(cc3[C@@H](O[C@@H]3O[C@@H]5CO[C@@H](C)O[C@H]5[C@H](O)[C@H]3O)[C@H]3COC(=O)[C@H]23)OCO4)cc(OC)c1O | trypan blue | 100 µM, 4 h | reference: PHF20 over mock | cell death increase | ~40% |
| N#Cc1ccc(-c2csc(NN=Cc3ccccc3F)n2)cc1 | colony formation | 10 µM, 24 h |  | inhibition | 100% |

For quick reference, copied from above:
| SMILES | assay | conditions | scale | quantity | value |
| --- | --- | --- | --- | --- | --- |
| COc1cc(CNC(=O)CCCC/C=C/C(C)C)ccc1OCc1cn(-c2cc(OC)c(OC)c(OC)c2)nn1 | SRB | 10 µM, 48 h |  | growth percent | 87.1% |
| N#Cc1ccc(-c2csc(NN=Cc3sccc3Br)n2)cc1 | colony formation | 5 µM, 24 h |  | inhibition | 5 to 50% |
